Measured values gathered from unrelated publications.
Every numbered part comes from another study and shows a few of its results, in no order. Positions count from the first letter of the parent shown.

Set 1 — technique: RNAcompete; molecule type: RNA; sample: in vitro; concentration: 20 nM; setting: 7-mer, probes averaged, single round; baseline: mean of 7-mers; reading: higher = stronger binding
Target: PABPC1L2, full length, GST fusion (mouse, UniProt A0ABA7IW68)
Residues (chain): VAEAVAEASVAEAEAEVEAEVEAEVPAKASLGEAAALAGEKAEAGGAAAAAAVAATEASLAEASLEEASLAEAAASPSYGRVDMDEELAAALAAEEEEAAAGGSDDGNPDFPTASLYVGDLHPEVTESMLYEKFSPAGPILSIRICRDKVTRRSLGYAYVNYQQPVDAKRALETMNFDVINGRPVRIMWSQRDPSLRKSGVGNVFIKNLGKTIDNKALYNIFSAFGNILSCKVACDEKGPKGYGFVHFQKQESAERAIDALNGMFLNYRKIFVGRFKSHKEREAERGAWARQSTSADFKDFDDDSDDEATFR
For `CACCGUU`, the 7-mer Z-score was -0.24.
`GAACUCU` gave a 7-mer Z-score of -0.28.
With `UGGACCG` the 7-mer Z-score was 0.222.
`GUAAGAG` gave a 7-mer Z-score of -0.0971.
The 7-mer Z-score of `UUAAAUG` is reported as 0.233.
The 7-mer Z-score of `CUGAGCU` is reported as -0.18.
With `GGCCACU` the 7-mer Z-score was -0.13.
The 7-mer Z-score of `UCGGGAC` is reported as 0.216.

Set 2 — technique: competition protein-binding microarray; molecule type: double-stranded DNA, one strand shown; sample: in vitro; concentration: 2 µM; with: Cbf1 competitor, 0.05 µM; reading: higher = stronger binding; constant ends, left off below: … GTCTTGATTCGCTTGACGCTGCTG
Target: Phosphate system positive regulatory protein PHO4, full length, GST-tagged (PHO4, Saccharomyces cerevisiae, UniProt P07270, residues 1-312)
Setting: whole 60-bp probe, lowest competitor level
Construct (chain): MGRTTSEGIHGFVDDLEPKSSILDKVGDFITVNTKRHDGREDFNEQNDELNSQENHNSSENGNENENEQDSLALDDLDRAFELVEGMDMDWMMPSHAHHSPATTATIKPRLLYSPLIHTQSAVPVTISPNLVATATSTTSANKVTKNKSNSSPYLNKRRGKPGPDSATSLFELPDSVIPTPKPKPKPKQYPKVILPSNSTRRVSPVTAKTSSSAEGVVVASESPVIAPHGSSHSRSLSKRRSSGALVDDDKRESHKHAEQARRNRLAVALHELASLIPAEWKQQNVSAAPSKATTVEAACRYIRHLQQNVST
With `TTTCGAGCCAGTTTGCACGTAGTACGGGCCCCCCTA` the fluorescence intensity was 6380 a.u.
The fluorescence intensity of `CTTCTGTAAATTTGGGCAGTGGGTGGACGCGCCCCG` is reported as 3920 a.u.
`CTAACGAAGGTTTGCCTCGTGGGTGACAAGCCAAGT` gave a fluorescence intensity of 12300 a.u.
For `CTTAACGGCCTTGTTGGTGTGACGCTCACCTTGCTC`, the fluorescence intensity was 4040 a.u.
The fluorescence intensity of `GATACACTTCCAGGGAACGTGATGGAAATGATCTTC` is reported as 12200 a.u.
With `CACAATTGGTGGTGGACCGTGACGGACACCCAAAGC` the fluorescence intensity was 5270 a.u.
For `AGGCAAGGCGTACATGGCGTGACGGAGGGTTCAATG`, the fluorescence intensity was 5310 a.u.
`CTTCTGTAAATTTGTCACACAACTTGACGCGCCCCG` gave a fluorescence intensity of 4020 a.u.

Single results of other studies
P1: PafA, mature enzyme, eGFP fusion (Elizabethkingia meningoseptica, UniProt Q9KJX5); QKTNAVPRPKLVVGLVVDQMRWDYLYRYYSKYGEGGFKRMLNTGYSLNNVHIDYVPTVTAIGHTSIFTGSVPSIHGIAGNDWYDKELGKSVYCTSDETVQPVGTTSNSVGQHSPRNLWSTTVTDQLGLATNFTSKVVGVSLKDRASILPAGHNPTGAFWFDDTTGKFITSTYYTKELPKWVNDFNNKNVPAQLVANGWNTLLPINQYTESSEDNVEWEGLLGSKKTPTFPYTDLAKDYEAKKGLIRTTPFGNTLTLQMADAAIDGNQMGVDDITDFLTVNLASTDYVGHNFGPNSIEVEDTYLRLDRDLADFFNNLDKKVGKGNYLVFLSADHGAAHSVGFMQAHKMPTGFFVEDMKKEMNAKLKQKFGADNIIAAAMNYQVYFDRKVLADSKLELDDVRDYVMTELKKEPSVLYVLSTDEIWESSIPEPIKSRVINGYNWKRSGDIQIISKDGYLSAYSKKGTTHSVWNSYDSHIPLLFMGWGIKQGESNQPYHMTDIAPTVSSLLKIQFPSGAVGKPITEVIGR
`P1 F160G` — result for “oxyanion analog dissociation constant”: 1.92 µM (tungstate, free oxyanion; microfluidic competitive inhibition; in vitro, cell-free expressed; not given, derived from inhibition constants, unchanged parent 2230 nM; lower = stronger binding).
`PhoQ, residues 284 288 289 292 302 303 ALVSVA` has a fold induction of 21.6 (PhoP, residues 12 14 15 18 19 VHSCL (Escherichia coli, UniProt P23836); Sort-seq, refers to: YFP reporter; E. coli; PhoQ-PhoP variant library, with: 10 µM Mg2+; baseline: high Mg2+ state, higher = stronger signaling).

Excerpt of the above (set 1):
With `UGGACCG` the 7-mer Z-score was 0.222.
`GUAAGAG` gave a 7-mer Z-score of -0.0971.
